{"data": "Measured values pooled from the literature", "note": "Each numbered part is a random draw from the data of one study; scales do not carry over between parts. Several values in a cell are separate wells, animals, samples, runs or records.", "chain of UniProt O75716 (whole entry, looked up)": "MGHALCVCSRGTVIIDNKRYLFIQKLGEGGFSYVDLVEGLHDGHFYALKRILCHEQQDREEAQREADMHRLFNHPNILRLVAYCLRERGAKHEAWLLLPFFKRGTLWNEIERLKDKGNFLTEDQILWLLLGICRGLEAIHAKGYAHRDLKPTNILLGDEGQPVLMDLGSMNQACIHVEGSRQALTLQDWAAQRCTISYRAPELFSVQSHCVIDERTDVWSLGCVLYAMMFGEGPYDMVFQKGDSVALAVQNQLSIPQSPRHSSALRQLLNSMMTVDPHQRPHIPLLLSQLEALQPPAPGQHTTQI", "chain of UniProt Q6P2M8 (whole entry, looked up)": "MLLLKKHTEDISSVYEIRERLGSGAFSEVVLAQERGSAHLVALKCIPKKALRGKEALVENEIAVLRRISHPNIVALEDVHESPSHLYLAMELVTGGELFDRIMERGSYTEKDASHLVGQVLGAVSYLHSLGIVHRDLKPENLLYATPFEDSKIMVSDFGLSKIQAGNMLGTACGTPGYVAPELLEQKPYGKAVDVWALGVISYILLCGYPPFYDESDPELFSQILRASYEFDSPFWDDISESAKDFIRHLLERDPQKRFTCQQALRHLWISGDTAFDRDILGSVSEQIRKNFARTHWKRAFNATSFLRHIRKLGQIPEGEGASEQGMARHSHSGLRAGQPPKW", "chain of UniProt Q9H4B4 (whole entry, looked up)": "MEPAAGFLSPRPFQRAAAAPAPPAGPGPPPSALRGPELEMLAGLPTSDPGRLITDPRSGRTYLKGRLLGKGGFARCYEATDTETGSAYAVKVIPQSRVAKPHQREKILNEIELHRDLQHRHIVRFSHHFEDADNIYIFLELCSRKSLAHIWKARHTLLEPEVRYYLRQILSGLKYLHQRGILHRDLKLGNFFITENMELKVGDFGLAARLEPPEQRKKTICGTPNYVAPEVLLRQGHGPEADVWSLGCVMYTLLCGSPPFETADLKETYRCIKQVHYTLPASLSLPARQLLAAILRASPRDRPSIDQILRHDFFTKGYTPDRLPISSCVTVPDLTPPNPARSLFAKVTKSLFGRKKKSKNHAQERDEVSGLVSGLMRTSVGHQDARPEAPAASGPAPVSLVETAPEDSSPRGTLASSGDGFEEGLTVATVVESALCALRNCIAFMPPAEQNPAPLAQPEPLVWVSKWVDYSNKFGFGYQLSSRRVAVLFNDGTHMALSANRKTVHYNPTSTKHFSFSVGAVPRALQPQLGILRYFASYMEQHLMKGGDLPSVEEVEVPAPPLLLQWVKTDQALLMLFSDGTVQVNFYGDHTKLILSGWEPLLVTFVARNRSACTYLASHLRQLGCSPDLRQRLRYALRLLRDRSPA", "chain of UniProt P10721 (whole entry, unmodified, looked up)": "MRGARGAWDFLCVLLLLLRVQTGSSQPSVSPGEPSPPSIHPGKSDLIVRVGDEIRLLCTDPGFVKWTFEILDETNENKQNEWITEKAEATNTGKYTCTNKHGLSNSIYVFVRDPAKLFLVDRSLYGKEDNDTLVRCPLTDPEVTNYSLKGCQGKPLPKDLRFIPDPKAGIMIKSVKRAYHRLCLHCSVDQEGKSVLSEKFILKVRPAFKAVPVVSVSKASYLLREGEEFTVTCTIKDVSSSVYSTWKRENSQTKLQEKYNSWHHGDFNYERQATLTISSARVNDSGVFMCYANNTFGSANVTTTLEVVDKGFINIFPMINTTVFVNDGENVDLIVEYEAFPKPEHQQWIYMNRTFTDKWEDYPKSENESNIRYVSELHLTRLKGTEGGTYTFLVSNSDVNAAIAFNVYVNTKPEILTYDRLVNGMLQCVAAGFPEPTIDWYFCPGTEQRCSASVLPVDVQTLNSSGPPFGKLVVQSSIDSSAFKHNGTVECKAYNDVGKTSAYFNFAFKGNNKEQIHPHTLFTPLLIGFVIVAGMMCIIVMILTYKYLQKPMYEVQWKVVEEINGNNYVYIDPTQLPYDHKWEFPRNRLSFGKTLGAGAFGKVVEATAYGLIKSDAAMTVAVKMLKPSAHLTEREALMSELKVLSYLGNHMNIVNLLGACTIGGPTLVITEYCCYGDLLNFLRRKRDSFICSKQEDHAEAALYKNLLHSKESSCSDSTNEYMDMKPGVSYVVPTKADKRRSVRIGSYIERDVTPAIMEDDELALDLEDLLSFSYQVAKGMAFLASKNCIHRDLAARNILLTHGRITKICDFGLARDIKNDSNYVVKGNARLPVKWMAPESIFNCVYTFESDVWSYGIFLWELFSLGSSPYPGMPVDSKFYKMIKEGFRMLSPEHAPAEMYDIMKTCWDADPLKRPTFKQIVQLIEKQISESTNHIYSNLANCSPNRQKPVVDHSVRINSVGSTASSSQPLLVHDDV", "chain of UniProt Q9UIK4 (whole entry, looked up)": "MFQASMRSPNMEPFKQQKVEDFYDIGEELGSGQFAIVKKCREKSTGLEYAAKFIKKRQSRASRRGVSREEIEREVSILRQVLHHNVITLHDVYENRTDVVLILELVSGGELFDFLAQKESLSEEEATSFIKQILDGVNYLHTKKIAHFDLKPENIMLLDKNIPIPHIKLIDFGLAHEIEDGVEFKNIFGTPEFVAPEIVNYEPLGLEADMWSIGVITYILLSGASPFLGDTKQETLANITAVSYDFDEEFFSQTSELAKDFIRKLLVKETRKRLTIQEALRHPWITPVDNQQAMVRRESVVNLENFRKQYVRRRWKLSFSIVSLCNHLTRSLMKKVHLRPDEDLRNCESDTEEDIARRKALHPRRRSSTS", "chain of UniProt Q02763 (whole entry, looked up)": "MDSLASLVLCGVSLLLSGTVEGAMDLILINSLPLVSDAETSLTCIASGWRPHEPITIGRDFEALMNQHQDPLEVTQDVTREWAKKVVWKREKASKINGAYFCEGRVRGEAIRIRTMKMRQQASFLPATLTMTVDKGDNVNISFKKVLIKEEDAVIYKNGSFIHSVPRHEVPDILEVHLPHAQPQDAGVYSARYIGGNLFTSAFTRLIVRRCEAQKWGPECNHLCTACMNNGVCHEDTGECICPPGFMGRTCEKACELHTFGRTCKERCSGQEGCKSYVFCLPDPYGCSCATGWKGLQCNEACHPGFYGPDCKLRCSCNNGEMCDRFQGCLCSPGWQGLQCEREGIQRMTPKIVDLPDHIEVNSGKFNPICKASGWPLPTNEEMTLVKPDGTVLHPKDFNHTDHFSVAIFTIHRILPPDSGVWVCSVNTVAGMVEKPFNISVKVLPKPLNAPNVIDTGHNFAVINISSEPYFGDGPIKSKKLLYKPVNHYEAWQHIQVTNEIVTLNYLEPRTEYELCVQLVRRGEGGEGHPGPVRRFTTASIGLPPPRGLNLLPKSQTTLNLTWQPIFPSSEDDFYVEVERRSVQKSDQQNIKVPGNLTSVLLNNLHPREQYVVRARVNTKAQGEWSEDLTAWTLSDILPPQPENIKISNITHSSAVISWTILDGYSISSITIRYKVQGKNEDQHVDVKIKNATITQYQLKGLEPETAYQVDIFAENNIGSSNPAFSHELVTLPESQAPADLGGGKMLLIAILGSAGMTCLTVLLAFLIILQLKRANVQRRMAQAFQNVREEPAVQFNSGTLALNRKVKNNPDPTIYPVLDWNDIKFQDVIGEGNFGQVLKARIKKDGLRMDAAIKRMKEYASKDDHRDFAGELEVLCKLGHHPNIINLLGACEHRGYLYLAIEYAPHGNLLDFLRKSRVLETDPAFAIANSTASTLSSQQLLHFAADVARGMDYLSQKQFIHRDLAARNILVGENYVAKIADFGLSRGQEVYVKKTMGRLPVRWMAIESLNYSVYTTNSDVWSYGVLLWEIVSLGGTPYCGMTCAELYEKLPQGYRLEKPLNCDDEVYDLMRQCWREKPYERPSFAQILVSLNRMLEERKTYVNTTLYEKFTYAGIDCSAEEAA"}
{"data": "Set 1", "SMILES": "NS(=O)(=O)c1cc(NC(=O)C2(c3ccccc3Cl)CC2)ccc1Oc1cccc(Cl)c1", "read-out": "cell-free assay", "method": "competition with immobilised ligand", "concentration": "1 µM"}
{"target": "Phosphatidylinositol 4-kinase beta (PI4KB, Homo sapiens, UniProt Q9UBF8)", "remaining binding [%]": 75}
{"target": "Serine/threonine-protein kinase PLK3 (PLK3, Homo sapiens, UniProt Q9H4B4)", "remaining binding [%]": 86}
{"target": "Death-associated protein kinase 2 (DAPK2, Homo sapiens, UniProt Q9UIK4)", "remaining binding [%]": 100}
{"target": "Calcium/calmodulin-dependent protein kinase type 1B (PNCK, Homo sapiens, UniProt Q6P2M8)", "remaining binding [%]": 100}
{"target": "Angiopoietin-1 receptor (TEK, Homo sapiens, UniProt Q02763)", "remaining binding [%]": 69}
{"target": "Phosphatidylinositol 4,5-bisphosphate 3-kinase catalytic subunit alpha isoform (PIK3CA, Homo sapiens, UniProt P42336, E545A)", "remaining binding [%]": 82}
{"target": "Ankyrin repeat and protein kinase domain-containing protein 1 (ANKK1, Homo sapiens, UniProt Q8NFD2)", "remaining binding [%]": 97}
{"target": "Focal adhesion kinase 1 (PTK2, Homo sapiens, UniProt Q05397)", "remaining binding [%]": 87}
{"data": "Set 2", "Compound": "Cc1ccc(NC(=O)c2ccnc(C(F)(F)F)c2)cc1-c1cc(OCCO)nc(N2CCOCC2)c1", "read-out": "binding", "concentration": "1 µM"}
{"target": "Serine/threonine-protein kinase DCLK1 (DCLK1, Homo sapiens, UniProt O15075)", "assay": "competition with immobilised ligand", "remaining binding": "96%"}
{"target": "Mast/stem cell growth factor receptor Kit (KIT, Homo sapiens, UniProt P10721, A829P)", "remaining binding": "97%"}
{"target": "Maternal embryonic leucine zipper kinase (MELK, Homo sapiens, UniProt Q14680)", "remaining binding": "65%"}
{"target": "Serine/threonine-protein kinase D1 (PRKD1, Homo sapiens, UniProt Q15139)", "remaining binding": "100%"}
{"target": "Serine/threonine-protein kinase 16 (STK16, Homo sapiens, UniProt O75716)", "remaining binding": "100%"}
{"target": "Epithelial discoidin domain-containing receptor 1 (DDR1, Homo sapiens, UniProt Q08345)", "assay": "competition with immobilised ligand", "remaining binding": "0.3%"}
{"data": "Set 3", "target": "Protein kinase C delta type (PRKCD, Homo sapiens, UniProt Q05655)", "read-out": "enzyme activity", "mode": "inhibitor", "concentration": "0.5 µM", "baseline": "control", "chain of UniProt Q05655 (whole entry, looked up)": "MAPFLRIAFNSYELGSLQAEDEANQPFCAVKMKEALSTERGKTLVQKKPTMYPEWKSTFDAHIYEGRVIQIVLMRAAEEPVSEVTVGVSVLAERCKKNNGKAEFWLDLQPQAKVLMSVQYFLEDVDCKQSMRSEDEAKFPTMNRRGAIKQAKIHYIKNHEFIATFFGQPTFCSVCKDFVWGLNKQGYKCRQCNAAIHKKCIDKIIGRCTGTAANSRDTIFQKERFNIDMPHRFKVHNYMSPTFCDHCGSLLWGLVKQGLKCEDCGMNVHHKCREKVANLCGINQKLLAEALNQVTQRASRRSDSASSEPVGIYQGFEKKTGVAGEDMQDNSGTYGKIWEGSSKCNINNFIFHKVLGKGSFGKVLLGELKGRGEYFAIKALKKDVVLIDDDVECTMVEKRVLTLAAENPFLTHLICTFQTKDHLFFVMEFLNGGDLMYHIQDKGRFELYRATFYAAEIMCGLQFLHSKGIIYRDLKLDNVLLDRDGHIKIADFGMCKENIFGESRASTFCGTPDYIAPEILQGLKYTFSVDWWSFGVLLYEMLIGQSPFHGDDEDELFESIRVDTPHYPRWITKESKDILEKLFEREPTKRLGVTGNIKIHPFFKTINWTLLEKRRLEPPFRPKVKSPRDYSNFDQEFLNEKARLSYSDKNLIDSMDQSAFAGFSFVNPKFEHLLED"}
{"SMILES": "COc1cc2nccc(Oc3ccc(NC(=S)NC(=O)c4ccccc4C)cc3)c2cc1OC", "remaining activity [%]": 90.4}
{"SMILES": "COc1ccc(OC)c2c(=S)c3ccccc3[nH]c12", "remaining activity [%]": 103}
{"SMILES": "Nc1ncnc2n[nH]c(Nc3ccc(F)cc3)c12", "remaining activity [%]": 112}
{"SMILES": "Nc1[nH]nc2nc3ccccc3nc12", "remaining activity [%]": 98.3}
{"SMILES": "O=S(=O)(c1cccc2cnccc12)N1CCCNCC1", "remaining activity [%]": 84.7}
{"SMILES": "O=C(O)c1ccc2c3c1cccc3c(=O)n1c3ccccc3nc21", "remaining activity [%]": 103}
{"SMILES": "COc1ccc(C(=O)Nc2sc3c(c2C(N)=O)CCCC3)cc1OC", "remaining activity [%]": 81.8}
{"SMILES": "C#Cc1cccc(Nc2ncnc3cc(OCCOC)c(OCCOC)cc23)c1", "remaining activity [%]": 104}
{"SMILES": "CNC(=O)c1cc(Oc2ccc(NC(=O)Nc3ccc(Cl)c(C(F)(F)F)c3)cc2)ccn1", "remaining activity [%]": 104}
{"SMILES": "COc1cc2ncnc(Nc3ccc(Oc4ccccc4)cc3)c2cc1OC", "remaining activity [%]": 96.8}
{"SMILES": "CN(C)c1ccc(C=C2C(=O)Nc3ccccc32)cc1", "remaining activity [%]": 95.6}
{"SMILES": "N#CC(C#N)=C(N)/C(C#N)=C/c1ccc(O)cc1", "remaining activity [%]": 93.7}
{"SMILES": "O=C(Nc1cccc(Nc2cc(Nc3cccc(C(F)(F)F)c3)ncn2)c1)C1CC1", "remaining activity [%]": 101}
{"SMILES": "OCC(O)CCON=C1C(c2c(O)[nH]c3ccccc23)=Nc2ccccc21 (centres unmarked)", "remaining activity [%]": 80.6}
{"data": "Other studies, line by line"}
{"Compound": "CN(N=O)C(=O)N[C@@H]1[C@@H](O)[C@H](O)[C@@H](CO)O[C@@H]1O", "test system": "mice, STZ diabetic neuropathy", "conditions": "dose not given, 7 days after STZ", "endpoint": "blood glucose", "result": "469 mg/dL and 406 mg/dL and 558 mg/dL and 325 mg/dL and 446 mg/dL"}
{"note": "For quick reference, copied from above (set 3):"}
{"SMILES": "Nc1ncnc2n[nH]c(Nc3ccc(F)cc3)c12", "remaining activity [%]": 112}
{"SMILES": "Nc1[nH]nc2nc3ccccc3nc12", "remaining activity [%]": 98.3}
{"SMILES": "O=S(=O)(c1cccc2cnccc12)N1CCCNCC1", "remaining activity [%]": 84.7}
{"SMILES": "O=C(O)c1ccc2c3c1cccc3c(=O)n1c3ccccc3nc21", "remaining activity [%]": 103}
{"SMILES": "COc1ccc(C(=O)Nc2sc3c(c2C(N)=O)CCCC3)cc1OC", "remaining activity [%]": 81.8}
